Published values from different studies.
Protocols differ between the studies behind these lines. Several values in a cell are separate wells, animals, samples, runs or records. ± gives the spread as reported.
GLP1R: Glucagon-like peptide 1 receptor (GLP1R, Homo sapiens, UniProt P43220)

For `CCC(=O)N(C)c1ccc(Cl)c(Cl)c1`, the fold activation was 1.09 fold (AHR (Homo sapiens, UniProt P35869); reporter gene, agonist; 0.32 µM; baseline: vehicle).
`Cn1c(=S)c2[nH]c(SCCCc3ccccc3)nc2n(C)c1=O` gave a remaining activity of 122% (Androgen receptor (AR, Homo sapiens, UniProt P10275); reporter gene, antagonist, PSA-luciferase; HeLa-A6; 10 µM, 24 h, together with: 5 nM dihydrotestosterone; baseline: maximal activity).
For `Cc1ccc2ccc3ccc(C)nc3c2n1.Cc1ccc2ccc3ccc(C)nc3c2n1.O.[Cl-].[Cl-].[Cl-].[Yb+3]`, the donor-acceptor distance was 2.69 nm (Albumin (ALB, Bos taurus, UniProt P02769); FRET, measured: tryptophan; 25 °C, excitation 280 nm).
`O=C(O)[C@H]1O[C@@H](O[C@@H]2c3cc4ccc5cccc6c7ccccc7c(c3C=C[C@H]2O)c4c56)[C@H](O)[C@@H](O)[C@@H]1O` has a kcat of 0.00283 ± 6.67e-05 s⁻¹ (UGT1A10 (Homo sapiens, UniProt Q9HAW8); glucuronidation, substrate; UGT-expressing HEK293 homogenate; normalized to UGT expression).
`O=C([O-])CN1CCN(CC(=O)[O-])CCN(C(CCC(=O)NCCCCCN(CCCC[C@H](NC(=O)N[C@@H](CCC(=O)O)C(=O)O)C(=O)O)C(=O)c2ccc(I)cc2)C(=O)O)CCN(CC(=O)[O-])CC1.[68Ga+3]` (some centres unmarked) — result for “mean tumour-to-background ratio”: 26 (FOLH1 (Homo sapiens, UniProt Q04609); PET/CT; prostate cancer patients, bone metastases; 60 min; baseline: lesion SUVmax over muscle SUVmean).
`CC[C@H](C)[C@H](NC(=O)[C@@H](NC(=O)[C@H](Cc1ccc(O)cc1)NC(=O)[C@H](C)NC(=O)[C@H](CC(N)=O)NC(=O)[C@H](CCC(=O)O)NC(=O)[C@H](Cc1ccccc1)NC(=O)[C@@H](NC(=O)[C@H](CO)NC(=O)[C@H](CCC(=O)O)NC(=O)[C@H](CCCCN)NC(=O)[C@H](Cc1ccccc1)NC(=O)[C@@H](N)CCCCN)C(C)C)C(C)C)C(=O)N[C@@H](Cc1ccc(O)cc1)C(=O)N[C@@H](CO)C(=O)N[C@@H](CO)C(=O)N[C@@H](CCSC)C(=O)N[C@@H](CC(C)C)C(=O)N[C@@H](Cc1ccc(O)cc1)C(=O)N[C@@H](CCCNC(=N)N)C(N)=O` has a koff of 0.158 ± 0.0076 s⁻¹ (Fibroblast growth factor 14 (Homo sapiens, UniProt Q92915)).
Under “cooperativity factor alpha”, `COc1ccc(-c2cc(C(F)(F)F)nc(SCC(=O)N(C)c3ccccc3)n2)cc1` is recorded as 2.9 (GLP1R; affinity cooperativity, allosteric modulator; HEK-293T overexpressing GLP1R; together with: GLP-1(9-36)).
`CCCN(CC(=O)N(CCC)CC(=O)N(CCC)CC(=O)N(CCC)CC(=O)N(CC(=O)N(CCC)CC(=O)N(CCC)CC(=O)N(CCC)CC(=O)N(CCC)CC(=O)N(CC(N)=O)Cc1cn(CCCNC(=O)CCCOc2cccc(-c3nc4ccc(-c5nc6ccc(N7CCN(C)CC7)cc6[nH]5)cc4[nH]3)c2)nn1)Cc1cn(CCCNC(=O)CCCOc2cccc(-c3nc4ccc(-c5nc6ccc(N7CCN(C)CC7)cc6[nH]5)cc4[nH]3)c2)nn1)C(=O)CNCc1cn(CCCNC(=O)CCCOc2cccc(-c3nc4ccc(-c5nc6ccc(N7CCN(C)CC7)cc6[nH]5)cc4[nH]3)c2)nn1` has a multivalent effect of 38 (MBNL1–r(CUG)109 complex; MBNL1 displacement; 0.65 pmol r(CUG)109; unit not given, together with: yeast tRNA 3.7 µM; baseline: monomer 2 IC50 per module).
`CCN(CC)C(=O)C1CCCN(C(=O)Nc2ccc3nc(-c4ccco4)c(-c4ccco4)nc3c2)C1` (centres unmarked) — result for “50% occupancy concentration”: 13.1 µM (PPIA (Homo sapiens, UniProt P62937); tryptophan fluorescence quenching; 6 µM PPIA, together with: ciclosporin 40 µM).
For `C=C1C[C@]2(C(=O)OC)C=C(C(=O)Nc3cccc(C(=O)Nc4ccc(Nc5nccc(-c6cccnc6)n5)c(C)c4)c3)C(=O)[C@H]1C2`, the k3 was 0.0063 s⁻¹ (MAPK8 (Homo sapiens, UniProt P45983); binding, SPR; 15, 40, 70 nM, parallel kinetic model).
`NC(=O)CN1C(=O)C(O)(CC(=O)c2cccc(N)c2)c2ccccc21` (centres unmarked) — result for “binding free energy decrease”: 0.2 to 0.5 kcal/mol (uncharacterized protein (Leishmania donovani, UniProt A0A3Q8IA09); competitive vs direct ITC; together with: aspartate or glutamate).
The activity increase of `CC[C@H](C)[C@H](NC(=O)[C@H](CC(N)=O)NC(=O)[C@H](CC(N)=O)NC(=O)[C@H](CCCNC(=N)N)NC(=O)[C@H](CC(N)=O)NC(=O)[C@H](CCCNC(=N)N)NC(=O)[C@H](CCCCN)NC(=O)[C@@H](NC(=O)[C@H](CC(N)=O)NC(=O)[C@H](CCSC)NC(=O)[C@H](CC(C)C)NC(=O)[C@H](Cc1c[nH]c2ccccc12)NC(=O)[C@@H]1CSCc2ccc(cc2)-c2ccc(cc2)CSC[C@@H](NC(=O)[C@H](CO)NC(=O)[C@H](CC(=O)O)NC(=O)[C@H](CC(C)C)NC(=O)[C@H](Cc2ccc(O)cc2)NC(=O)[C@H](CCCCN)NC(=O)[C@H](CO)NC(=O)[C@H](Cc2ccc(O)cc2)NC(=O)[C@H](CC(=O)O)NC(=O)[C@H](CO)NC(=O)[C@@H](NC(=O)[C@H](Cc2ccccc2)NC(=O)[C@@H](NC(=O)CNC(=O)[C@H](CCC(N)=O)NC(=O)[C@@H](CO)NC(=O)[C@@H](N)Cc2c[nH]cn2)[C@@H](C)O)[C@@H](C)O)C(=O)N[C@@H](CCCNC(=N)N)C(=O)N[C@@H](C)C(=O)N[C@@H](CCC(N)=O)C(=O)N[C@@H](CC(=O)O)C(=O)N[C@@H](Cc2ccccc2)C(=O)N[C@@H](C(C)C)C(=O)N1)[C@@H](C)O)C(=O)N[C@@H](C)C(N)=O` is reported as 16 fold (Glucagon receptor (GCGR, Homo sapiens, UniProt P47871); CRE luciferase reporter, agonist; concentration not given; baseline: linear counterpart).
`[11CH3]Nc1ccc(-c2nc3ccc(O)cc3o2)cn1`: “distribution volume ratio” 0.8 ± 0.09 (APP (Homo sapiens, UniProt P05067); binding, PET, reference Logan; control subjects, anterior cingulate cortex; baseline: cerebellum).
`CNc1ccccc1C(=O)O[C@H]1C[C@H](n2cnc3c(N)ncnc32)O[C@@H]1COP(=O)(O)OP(=O)(O)O` has a donor-acceptor distance of 15.5 Å (Unconventional myosin-Va (Gallus gallus, UniProt Q02440, D297C/G292C/I296C/S293C/V295G); FRET; compound complex; 4 °C, together with: 2 mM MgCl2).
For `COc1ccc(F)cc1CC1(NC(=O)c2cc(N3C[C@@H](C)O[C@H](C)C3)ccn2)CC1`, “maximal surface localization” read 3.5 fold (SLC6A8 (Homo sapiens, UniProt P48029, P544L); PathHunter trafficking; U-2 OS expressing SLC6A8; 24 h; baseline: DMSO).
With `COc1ccc(-c2cc(C(F)(F)F)nc(NCc3ccccc3)n2)cc1OC` the Emax was 52 ± 2.7% (GLP1R; cAMP accumulation, positive allosteric modulator; HEK-293T overexpressing GLP1R; together with: EC20 GLP-1).
`COc1c(F)c(F)c(C(=O)N[C@H]2[C@@H](O)[C@@H](CO)O[C@@H](S[C@@H]3O[C@H](CO)[C@H](O)[C@H](NC(=O)c4c(F)c(F)c(OC)c(F)c4F)[C@H]3OS(=O)(=O)O)[C@@H]2O)c(F)c1F` gave a ΔG of -9.058 ± 0.0478 kcal/mol (Galectin-3 (LGALS3, Homo sapiens, UniProt P17931); ITC; pH 7.2, 4% DMSO).
For `CC(C)CCC[C@@H](C)[C@H]1CC[C@H]2[C@@H]3CC[C@H]4C[C@@H](O[C@@H]5O[C@H](COS(=O)(=O)O)[C@@H](O[C@H]6O[C@H](COS(=O)(=O)O)[C@@H](O[C@H]7O[C@H](COS(=O)(=O)O)[C@@H](O[C@H]8O[C@H](COS(=O)(=O)O)[C@@H](OS(=O)(=O)O)[C@H](OS(=O)(=O)O)[C@H]8OS(=O)(=O)O)[C@H](OS(=O)(=O)O)[C@H]7OS(=O)(=O)O)[C@H](OS(=O)(=O)O)[C@H]6OS(=O)(=O)O)[C@H](OS(=O)(=O)O)[C@H]5OS(=O)(=O)O)CC[C@]4(C)[C@H]3CC[C@]12C`, the Hill coefficient was 2.98 ± 0.16 (Heparanase (HPSE, Homo sapiens, UniProt Q9Y251); enzyme activity, inhibitor).
`Nc1ncnc2c1ncn2[C@@H]1O[C@H](COP(=O)(O)OP(=O)(O)NP(=O)(O)O)[C@@H](O)[C@H]1O` — result for “AdoMet burst amplitude”: 24 ± 3 µM (MAT2A (Homo sapiens, UniProt P31153); substrate; enzyme 25 µM, together with: methionine).
`Cc1ccc(C(=O)Nc2ccc(CP(=O)(O)O)cc2CP(=O)(O)O)cc1NC(=O)c1cccc(NC(=O)Nc2cccc(C(=O)Nc3cc(C(=O)Nc4ccc(CP(=O)(O)O)cc4CP(=O)(O)O)ccc3C)c2)c1` gave a maximal inhibition of 68% and ~68% (F11 (Homo sapiens, UniProt P03951); enzyme activity, inhibitor; pH 7.4, 37 °C, together with: S-2366 substrate).

Repeated from above:
`Cn1c(=S)c2[nH]c(SCCCc3ccccc3)nc2n(C)c1=O` gave a remaining activity of 122% (Androgen receptor (AR, Homo sapiens, UniProt P10275); reporter gene, antagonist, PSA-luciferase; HeLa-A6; 10 µM, 24 h, together with: 5 nM dihydrotestosterone; baseline: maximal activity).
The activity increase of `CC[C@H](C)[C@H](NC(=O)[C@H](CC(N)=O)NC(=O)[C@H](CC(N)=O)NC(=O)[C@H](CCCNC(=N)N)NC(=O)[C@H](CC(N)=O)NC(=O)[C@H](CCCNC(=N)N)NC(=O)[C@H](CCCCN)NC(=O)[C@@H](NC(=O)[C@H](CC(N)=O)NC(=O)[C@H](CCSC)NC(=O)[C@H](CC(C)C)NC(=O)[C@H](Cc1c[nH]c2ccccc12)NC(=O)[C@@H]1CSCc2ccc(cc2)-c2ccc(cc2)CSC[C@@H](NC(=O)[C@H](CO)NC(=O)[C@H](CC(=O)O)NC(=O)[C@H](CC(C)C)NC(=O)[C@H](Cc2ccc(O)cc2)NC(=O)[C@H](CCCCN)NC(=O)[C@H](CO)NC(=O)[C@H](Cc2ccc(O)cc2)NC(=O)[C@H](CC(=O)O)NC(=O)[C@H](CO)NC(=O)[C@@H](NC(=O)[C@H](Cc2ccccc2)NC(=O)[C@@H](NC(=O)CNC(=O)[C@H](CCC(N)=O)NC(=O)[C@@H](CO)NC(=O)[C@@H](N)Cc2c[nH]cn2)[C@@H](C)O)[C@@H](C)O)C(=O)N[C@@H](CCCNC(=N)N)C(=O)N[C@@H](C)C(=O)N[C@@H](CCC(N)=O)C(=O)N[C@@H](CC(=O)O)C(=O)N[C@@H](Cc2ccccc2)C(=O)N[C@@H](C(C)C)C(=O)N1)[C@@H](C)O)C(=O)N[C@@H](C)C(N)=O` is reported as 16 fold (Glucagon receptor (GCGR, Homo sapiens, UniProt P47871); CRE luciferase reporter, agonist; concentration not given; baseline: linear counterpart).
`Cc1ccc(C(=O)Nc2ccc(CP(=O)(O)O)cc2CP(=O)(O)O)cc1NC(=O)c1cccc(NC(=O)Nc2cccc(C(=O)Nc3cc(C(=O)Nc4ccc(CP(=O)(O)O)cc4CP(=O)(O)O)ccc3C)c2)c1` gave a maximal inhibition of 68% and ~68% (F11 (Homo sapiens, UniProt P03951); enzyme activity, inhibitor; pH 7.4, 37 °C, together with: S-2366 substrate).
